# Results from different studies.
# Protocols differ between the studies behind these lines. “And” joins repeats or separate records; there may be more than shown. ± marks the error that the study gave.
SMILES,tested on,assay,test system,setting,scale,endpoint,result
CC(C)NC(=O)NCC1CCOC2(CCN(C(=O)C3(c4ccccc4)CCCC3)CC2)C1 (stereo not drawn),Venezuelan equine encephalitis virus,viral replication,,,,EC50,> 39.8 µM
O=C1c2c(O)c(=O)ccn2N([C@@H]2c3ccccc3SCc3c2ccc(F)c3F)[C@@H]2COCCN12,Influenza A virus,viral replication,A(H9N2) A/environment/Bangladesh/12068/2011,mean,,EC50,0.00055 ± 4e-05 µM
CC(=O)c1ccc2c(c1)N(CCCN1CCN(CCO)CC1)c1ccccc1S2,SARS-CoV-2,"viral replication, GFP plate reader screen",,cell-based,,EC50,> 100 µM
CCCN(CCC)CCCNC(=O)C1CCCN(Cc2nc(-c3ccc(Cl)cc3)oc2C)C1 (stereo not drawn),SARS-CoV-2,"cytopathic effect, cell-based CPE",USA_WA1/2020,"round 2, 5-point dilution",,efficacy,87.3%
CCCCCC(=O)NCC1CCOC2(CCN(C(=O)C3(c4ccccc4)CCCC3)CC2)C1 (stereo not drawn),Venezuelan equine encephalitis virus,viral replication,,,,EC50,12.6 µM
O=C1CC2(CCCC2)CC(=O)N1CCCCN1CCN(c2nsc3ccccc23)CC1,SARS-CoV-2,"viral replication, high-content imaging screen",,cell-based,,EC50,> 100 µM
O=C(N1CCC2(CC1)C[C@H](CN1CCCCS1(=O)=O)CCO2)C1(c2ccccc2)CCCC1,Yellow fever virus,viral replication,Huh-7,,,EC50,> 32 µM
CCOc1ccccc1CNCc1cccn1-c1nnc(N2CCN(c3ccccc3)CC2)s1,SARS-CoV-2,"cytopathic effect, cell-based CPE",USA_WA1/2020,"round 1, 5-point dilution",,AC50,3.16 µM
O=c1ccn([C@@H]2O[C@](F)(CO)[C@@H](O)[C@H]2O)c(=O)[nH]1,Mammarenavirus lassaense,viral replication,Huh-7,,,EC50,1.47 µM
CN(CC1CCOC2(CCN(C(=O)C3(c4ccccc4)CCCC3)CC2)C1)S(C)(=O)=O (stereo not drawn),Venezuelan equine encephalitis virus,viral replication,,,,EC50,12.6 µM
Nc1ncnc2c([C@@H]3N[C@H](CO)[C@@H](O)[C@H]3O)c[nH]c12,Sudan ebolavirus,viral replication,"HeLa, Boniface",25 µM,,inhibition,88.3%
NC(=O)c1nc(F)c[nH]c1=O,Mammarenavirus juninense,"viral replication, measured: JUNV",HEK-293T,,,EC50,10 µM
CC[C@H](C)[C@H](NC(=O)[C@H](CC(C)C)NC(=O)[C@H](Cc1c[nH]c2ccccc12)NC(=O)[C@H](CCC(N)=O)NC(=O)[C@@H](NC(=O)[C@H](Cc1ccccc1)NC(=O)[C@H](C)NC(=O)[C@H](CCCCNC(=O)COCCOCCNC(=O)COCCOCCNC(=O)CC[C@H](NC(=O)CCCCCCCCCCCCCCCCCCC(=O)O)C(=O)O)NC(=O)[C@H](CCC(N)=O)NC(=O)[C@H](C)NC(=O)[C@@H](NC(=O)[C@H](CCCCN)NC(=O)[C@H](CC(=O)O)NC(=O)[C@H](CC(C)C)NC(=O)C(C)(C)NC(=O)[C@@H](NC(=O)[C@H](CO)NC(=O)[C@H](Cc1ccc(O)cc1)NC(=O)[C@H](CC(=O)O)NC(=O)[C@H](CO)NC(=O)[C@@H](NC(=O)[C@H](Cc1ccccc1)NC(=O)[C@@H](NC(=O)CNC(=O)[C@H](CCC(=O)O)NC(=O)C(C)(C)NC(=O)[C@@H](N)Cc1ccc(O)cc1)[C@@H](C)O)[C@@H](C)O)[C@@H](C)CC)[C@@H](C)CC)C(C)C)C(=O)N[C@@H](C)C(=O)NCC(=O)NCC(=O)N1CCC[C@H]1C(=O)N[C@@H](CO)C(=O)N[C@@H](CO)C(=O)NCC(=O)N[C@@H](C)C(=O)N1CCC[C@H]1C(=O)N1CCC[C@H]1C(=O)N1CCC[C@H]1C(=O)N[C@@H](CO)C(N)=O,,measured: anti-drug antibodies,patients with type 2 diabetes,"5/5/10/10 mg escalating, titer increase ≥4-fold",,subjects with treatment-boosted ADA,8.3%
OCc1cc(C(O)CNCCCCCCOCCCCc2ccccc2)ccc1O (stereo not drawn),SARS-CoV-2,"viral replication, high-content imaging screen",,cell-based,,EC50,> 100 µM
O=C(NCC1CCOC2(CCN(C(=O)C3(c4ccccc4)CCCC3)CC2)C1)c1ccccn1 (stereo not drawn),Venezuelan equine encephalitis virus,viral replication,,,,EC50,12.6 µM
COC(=O)[C@H]1[C@H]2C[C@@H]3c4[nH]c5cc(OC)ccc5c4CCN3C[C@H]2C[C@@H](OC(=O)/C=C/c2cc(OC)c(OC)c(OC)c2)[C@@H]1OC,SARS-CoV-2,"viral replication, GFP plate reader screen",,cell-based,,EC50,> 50.1 µM
CNC(=O)[C@@H](NC(=O)[C@H](CC(C)C)[C@H](O)C(=O)NO)C(C)(C)C,Daboia russelii venom proteases (SVMP),"protease activity, inhibitor",KL population,"1 µM, together with: azocasein substrate",baseline: venom alone,remaining activity,6.59% and 9.24% and 7.56%
CCS(=O)(=O)NCC1CCOC2(CCN(C(=O)C3(c4ccccc4)CCCC3)CC2)C1 (stereo not drawn),Venezuelan equine encephalitis virus,viral replication,,,,EC50,12.6 µM
N#Cc1c(Nc2ccc(F)cc2)n[nH]c1NS(=O)(=O)c1ccc2ccccc2c1,Powassan virus,viral replication,"BHK-21, LB",,,EC50,> 1.1 µM
Cc1ccc(C(=O)Oc2ccc(C(O)CNC(C)(C)C)cc2OC(=O)c2ccc(C)cc2)cc1 (stereo not drawn),SARS-CoV-2,"viral replication, high-content imaging screen",,cell-based,,EC50,> 100 µM
Cn1cnc(Cn2c(=O)[nH]/c(=N\c3cc4cn(C)nc4cc3Cl)n(Cc3cc(F)c(F)cc3F)c2=O)n1,,,"human, moderate renal impairment","oral, 375 mg, treatment-related dry mouth, Severe severity",,patients with adverse event,0%

# For quick reference, copied from above:
SMILES,tested on,assay,test system,setting,scale,endpoint,result
COC(=O)[C@H]1[C@H]2C[C@@H]3c4[nH]c5cc(OC)ccc5c4CCN3C[C@H]2C[C@@H](OC(=O)/C=C/c2cc(OC)c(OC)c(OC)c2)[C@@H]1OC,SARS-CoV-2,"viral replication, GFP plate reader screen",,cell-based,,EC50,> 50.1 µM
